Published values of several laboratories.
Every numbered part comes from another study and shows a few of its results, in no order. Positions count from the first letter of the parent shown.

Set 1
Target: MAFG, bZIP domain (human)
Technique: DHFR protein complementation
Matrix: yeast
Setting: single substitutions, most at no-binding floor
Baseline: wild-type JUN-FOS pair
Direction: higher = stronger binding
Endpoint: binding fitness
Starting sequence: JUN, bZIP domain (human); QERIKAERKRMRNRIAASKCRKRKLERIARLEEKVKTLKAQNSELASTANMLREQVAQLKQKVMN; partner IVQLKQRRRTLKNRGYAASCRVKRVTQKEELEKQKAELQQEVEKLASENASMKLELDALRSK
S47M: -1.27 natural log
R53Q: -1.46 natural log
A40L: -1.47 natural log
Q55S: -1.32 natural log
K36F: -1.35 natural log
A46Y: -1.51 natural log

Set 2
Target: CCND1, cyclin fold, Cln2 fusion (human)
Technique: yeast growth competition, sequencing
Matrix: yeast
Setting: weak parent motif
Baseline: not given
Direction: higher = stronger binding
Endpoint: normalised enrichment score
Starting sequence: GMNC docking peptide (human); KNAKRNLSSEFAN; partner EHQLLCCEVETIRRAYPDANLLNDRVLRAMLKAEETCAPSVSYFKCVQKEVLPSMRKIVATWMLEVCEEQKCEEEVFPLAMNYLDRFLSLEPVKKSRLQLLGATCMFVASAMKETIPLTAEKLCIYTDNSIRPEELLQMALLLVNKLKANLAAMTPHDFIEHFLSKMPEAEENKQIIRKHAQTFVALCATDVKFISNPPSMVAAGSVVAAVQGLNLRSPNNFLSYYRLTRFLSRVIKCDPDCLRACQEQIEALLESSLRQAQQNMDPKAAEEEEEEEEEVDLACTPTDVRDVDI
S8C: 0.195
A3V: 0.739
F11H: -0.15
S8W: 0.215
S9N: 0.752
A3P: -0.2
S9F: 0.936
A3D: 0.179
A12F: 0.422
R5K: 0.0737

Set 3
Target: RNA binding protein fox-1 homolog 2, RRM domain, GST-SBP tag (RBFOX2, Homo sapiens, UniProt O43251-10, residues 100-194)
Technique: RNA Bind-n-Seq
Molecule type: RNA
Matrix: in vitro
Tested at: 365 nM
Setting: natural RNA segment, single round, ends assumed
Baseline: no-protein control
Direction: higher = stronger binding
Endpoint: RBNS enrichment (R)
Target sequence (chain): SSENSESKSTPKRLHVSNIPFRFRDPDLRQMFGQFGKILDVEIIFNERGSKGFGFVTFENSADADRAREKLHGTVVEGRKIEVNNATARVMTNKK
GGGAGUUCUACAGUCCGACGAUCUAGAACCCUUCUGCUUUCUAUUACCCCUCAUUUAAAAUGUAAACUCUUCACCUUGGUUUAUGAGAACUGGUUCUUGCCUUCCCCUUGAACCUCAUUAAAUGGUGAUUUCUUGGAAUUCUCGGGUGCCAA: 1.12
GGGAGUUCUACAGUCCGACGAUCAUAUAGAUGACUUAAUUACAUUCUUGAUUGGUCAUGUGCAGUCUUCUGAAGAUGAGCUAACAAUGCCUUGUCUAGGACUAUUGGCAAAUCUUUGUCGGCACAAUCUUUCUUGGAAUUCUCGGGUGCCAA: 0.243
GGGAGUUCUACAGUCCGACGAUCUCCAAGCCUGAAAAGGUCCAGGUGUCUAAGCUCUUCUCUGACUGCAACGAGUUGAAUUCUAAUCCUCACAGGAUGGAUGCCAGUGUCGGCACUUUCUUAAUUAUGAGUAUUGGAAUUCUCGGGUGCCAA: 0.426
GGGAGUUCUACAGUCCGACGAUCUUACUGGGAGCCACGUAAAUGGAACCUUGACCAUAUUUCUGCAAUAAACAGUUUAAUUUGUGUCUUUCCACUGGUACAGGGUUGUCUGCUUUGCCCUUGCUCACGUGCAGUGGAAUUCUCGGGUGCCAA: 1.86
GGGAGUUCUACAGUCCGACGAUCAAGGCUACCUUGAAAUCCAGAAAAUCCAAUCCUAAGUCAACUGCUUGGUGAAGGAGACAAGCAGUCAGCGGAGAAUCUGAUGGUGGAAAAGCUACAGCGACAGACGGCCAUGGAAUUCUCGGGUGCCAA: 0.451
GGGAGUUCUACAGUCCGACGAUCGCUACGUCUGCUGUAGUUCCAUUUUGUAUGUUGUGUAAAGCGAGCAUCGAUCGAAGCAAAAGGUGAUGUGUGUAUAUCAGAAAAAAGAAAUUAACUGUAUAUCAUUCCAGUGGAAUUCUCGGGUGCCAA: 1.82
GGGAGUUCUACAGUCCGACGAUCAUGGCCAUUCUACCCAGAUAGGUUUUAGCUUAUAUAUAGGACAUCAGAUUCCCUGGAAUCCUUGGUUCAGGAAGGUGCUUGGGAAAGGGGUGUAGCCAGAAUAUUUUUUCUGGAAUUCUCGGGUGCCAA: 0.543
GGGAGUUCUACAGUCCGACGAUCUCAUCUAGUUAAAAAAAAGAGUGUUAGCAAAUGUGCCACUUCUCCAUAGUUUUUAAUCCCAAAGUUAUUUAAACAUCAGUAAGACAAGGUACCACUUCAUACAGUGAAAAUGGAAUUCUCGGGUGCCAA: 0.548

Single results of other studies
PhoQ, residues 284 288 289 292 302 303 TYGVAM — fold induction (PhoP, residues 12 14 15 18 19 SMASL (Escherichia coli, UniProt P23836); Sort-seq, refers to: YFP reporter; E. coli; PhoQ-PhoP variant library, together with: 10 µM Mg2+; baseline: high Mg2+ state, higher = stronger signaling): 3.1
